Published values collected from several papers.
Numbered parts are unrelated; each lists some results of a single study.

Set 1
Target: Histone acetyltransferase KAT6A, both winged helices, GST fusion (KAT6A, Homo sapiens, UniProt Q92794, residues 1-181)
Technique: protein binding microarray
Molecule type: double-stranded DNA, one strand shown
Matrix: in vitro
Concentration: not given
Setting: 8-mer, flanks averaged, mean of 2 arrays, mostly near background
Baseline: not given
Reading: higher = stronger binding
Construct (chain): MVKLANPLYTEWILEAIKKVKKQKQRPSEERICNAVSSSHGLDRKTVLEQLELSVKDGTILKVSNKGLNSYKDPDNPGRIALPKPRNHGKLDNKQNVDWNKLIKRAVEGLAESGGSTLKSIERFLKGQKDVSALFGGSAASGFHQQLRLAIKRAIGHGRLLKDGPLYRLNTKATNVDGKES
Strand | E-score
GCTTTTTA | -0.00602
GATTGTTA | -0.117
GTGCTTCA | -0.196
ACACGCTC | 0.0999
CTTTTGAA | 0.00245
AACTCATC | 0.0201
CGGGGACC | 0.151
ACAGGCCG | 0.106

Set 2
Target: Replicase polyprotein 1ab, polymerase (rep, Severe acute respiratory syndrome coronavirus 2, UniProt P0DTD1)
Observed: enzyme activity
Mode: inhibitor
Concentration: 20 µM
Compound | inhibition
CC(C)Oc1ccc2c(=O)c3cc(C(=O)O)ccc3oc2c1 | 2.43%
CCOP(=S)(OCC)Oc1cc(C)nc(C(C)C)n1 | -6.75%
CC(=O)CC/C=C(\C)CC/C=C(\C)CC/C=C(\C)CCC=C(C)C | 6.88%
C/C(O)=C(\C#N)C(=O)Nc1cc(Br)ccc1Br | 35.3%
OCCN1CCN(CCCN2c3ccccc3Sc3ccc(Cl)cc32)CC1 | 0.47%
N=C1CCCN1Cc1[nH]c(=O)[nH]c(=O)c1Cl | -9.41%
Cc1c(Cl)cccc1Nc1ccccc1C(=O)O | 23.7%
C=CCNC1=C2C[C@@H](C)C[C@H](OC)[C@H](O)[C@@H](C)/C=C(\C)[C@H](OC(N)=O)[C@@H](OC)/C=C\C=C(/C)C(=O)NC(=CC1=O)C2=O | 5.06%
c1ccc2sc(SNC3CCCCC3)nc2c1 | 1.69%
OCC(CO)N[C@H]1C[C@](O)(CO)[C@@H](O)[C@H](O)[C@H]1O | -1.87%
Oc1cc(O)c2c(c1)O[C@H](c1ccc(O)c(O)c1)[C@H](O)[C@H]2c1c(O)cc(O)c2c1O[C@H](c1ccc(O)c(O)c1)[C@H](O)C2 | 48.7%
O=C(NCCN1CCC2(CC1)C(=O)NCN2c1cccc(F)c1)c1ccc2ccccc2c1 | 1.16%
CNC(=O)[C@H]1O[C@@H](n2cnc3c(NCc4cccc(I)c4)ncnc32)[C@H](O)[C@@H]1O | -0.62%
O=C1C(=O)N(Cc2ccc(Cl)c(Cl)c2)c2ccccc21 | 13.2%
O=C(Nc1ccc(C(=O)O)c(O)c1)c1ccccc1 | -3.87%
N=C(N)NC(=N)N1CCOCC1 | 0.88%
C[C@@H]1[C@H](O)[C@@H](C)/C=C/C=C/CC/C=C/C=C/C=C/C=C/[C@H](O[C@@H]2O[C@H](C)[C@@H](O)[C@H](N)[C@@H]2O)C[C@@H]2O[C@](O)(C[C@@H](O)[C@H](O)CC[C@@H](O)C[C@@H](O)C[C@@H](O)CC(=O)O[C@H]1C)C[C@H](O)[C@H]2C(=O)O | -0.47%
O=P(O)(O)CP(=O)(O)O | 1.85%
O=C(O)[C@]1(Cc2cccc(Nc3nccs3)n2)CC[C@@H](Oc2cccc(Cl)c2F)CC1 | 5.78%
NC(=O)c1cccnc1 | 2.46%
CC1(C)CC(=O)c2c(C(F)(F)F)nn(-c3ccc(C(N)=O)c(N[C@H]4CC[C@H](O)CC4)c3)c2C1 | 0.1%
Cc1cccc(Nc2ccccc2C(=O)O)c1C | 5.15%
CCc1cc2c(c(CC)n1)CCC(=O)N2Cc1ccc(-c2ccccc2-c2nn[nH]n2)cc1 | 6.36%
CN/C(=N\CCSCc1nc[nH]c1C)NC#N | 25.6%
CC(=O)Nc1ccccc1 | 18.6%

Set 3
Target: Interferon regulatory factor 3, full length, phosphomimetic (IRF3, Homo sapiens, UniProt Q14653, residues 1-427, S386D/S396D/S398D/S402D/T404D/S405D)
Technique: protein-binding microarray
Molecule type: double-stranded DNA, one strand shown
Matrix: in vitro
Concentration: 2540 nM top
Setting: 60-bp whole probe
Together with: salmon DNA 0.4 mg/ml
Baseline: random background probes
Reading: higher = stronger binding
All sequences stand within: GCCTAGCAC … GTCTTGATTCGCTTGACGCTGCTG
Residues (chain): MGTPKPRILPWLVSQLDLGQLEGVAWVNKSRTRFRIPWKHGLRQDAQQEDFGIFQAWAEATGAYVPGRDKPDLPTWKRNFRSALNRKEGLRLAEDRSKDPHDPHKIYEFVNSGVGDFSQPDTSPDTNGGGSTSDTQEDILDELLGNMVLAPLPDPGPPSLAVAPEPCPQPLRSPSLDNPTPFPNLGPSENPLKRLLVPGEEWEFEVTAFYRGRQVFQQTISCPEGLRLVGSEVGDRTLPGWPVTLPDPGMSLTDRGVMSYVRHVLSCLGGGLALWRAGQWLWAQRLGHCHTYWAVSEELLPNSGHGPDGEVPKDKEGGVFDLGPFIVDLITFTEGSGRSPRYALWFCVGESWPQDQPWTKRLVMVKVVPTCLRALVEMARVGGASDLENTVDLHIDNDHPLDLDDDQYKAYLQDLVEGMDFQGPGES
Strand | fitted relative affinity [z-score]
TTAGGTATCCTTCTCGTTTAGTGCTAG | 7.64
GACGATTTCACTCTCGAGACGTGCTAG | 3.03
TTAGATATCGGTTATCGATTAGTGCTA | 1.54
GACGGTATCGTTATCCTGACGTGCTAG | 2.83
GACGAACTGGGGACTGTAGACGTGCTA | -0.632
TCAGCTTTCCTGATGGTACTGTGCTAG | 1.67
TTAGATATCGGGACTGGATTTGTGCTA | -0.07
CTCTGGTTCTTGCTTGGTGTCGTGCTA | -0.462

Set 4
Target: Sal-like protein 4, full length isoform B (SALL4, Homo sapiens, UniProt Q9UJQ4-2, residues 1-616)
Technique: universal PBM
Molecule type: double-stranded DNA, one strand shown
Matrix: in vitro
Concentration: not given
Setting: 8-mer, flanks averaged, mean of replicates
Reading: higher = stronger binding
Construct (chain): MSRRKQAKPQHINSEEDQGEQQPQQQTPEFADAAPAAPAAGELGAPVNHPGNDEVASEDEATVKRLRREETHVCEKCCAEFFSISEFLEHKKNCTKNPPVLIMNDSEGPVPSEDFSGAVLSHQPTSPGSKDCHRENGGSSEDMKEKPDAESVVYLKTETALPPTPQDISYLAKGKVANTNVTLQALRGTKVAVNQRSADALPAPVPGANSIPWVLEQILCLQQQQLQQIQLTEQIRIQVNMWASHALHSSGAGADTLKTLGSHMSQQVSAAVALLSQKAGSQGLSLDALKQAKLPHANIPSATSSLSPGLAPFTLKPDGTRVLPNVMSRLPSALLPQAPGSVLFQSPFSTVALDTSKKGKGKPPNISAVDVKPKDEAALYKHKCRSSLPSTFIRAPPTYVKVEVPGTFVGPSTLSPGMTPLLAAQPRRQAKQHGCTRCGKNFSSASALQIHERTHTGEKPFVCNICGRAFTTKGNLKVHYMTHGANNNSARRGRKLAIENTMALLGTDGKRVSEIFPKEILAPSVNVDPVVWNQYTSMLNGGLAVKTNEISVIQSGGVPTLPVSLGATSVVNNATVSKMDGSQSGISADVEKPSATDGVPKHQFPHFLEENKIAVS
Strand | E-score
TAAATGCA | 0.284
ACCGCGAG | -0.259
CGTACAGC | -0.147
CTTTTGGA | 0.00074
ACAGCTGA | -0.184
ACAACTAA | 0.253
AGCTACTA | 0.146
ACAATTAG | 0.123

Mixed results
rep main protease: Replicase polyprotein 1ab, main protease (rep, Severe acute respiratory syndrome coronavirus 2, UniProt P0DTD1)
Structure (SMILES) | target or system | test | setting | how to read | quantity | value
CCOc1cc([C@@H](CS(C)(=O)=O)N2C(=O)c3cccc(NC(C)=O)c3C2=O)ccc1OC | HEK-293T-ACE2 |  | concentration not given | baseline: vehicle | cell number | 94.1%
CCOC(=O)Nc1ccc(NCc2ccc(F)cc2)nc1N | rep main protease | enzyme activity, inhibitor | 20 µM, primary screen |  | inhibition | 39.7%
C[C@H](Cn1cnc2c(N)ncnc21)OCP(=O)(O)O | HEK-293T/ACE2 |  | concentration not given, 16 (unit not given) | baseline: vehicle | viability | 95.7%
O=C1NC(=O)C(c2ccccc2)N1 (centres unmarked) | rep main protease | enzyme activity, inhibitor | 20 µM, primary screen |  | inhibition | 64%

A few entries again (set 4):
Strand | E-score
CGTACAGC | -0.147
ACAATTAG | 0.123
TAAATGCA | 0.284
CTTTTGGA | 0.00074
ACAGCTGA | -0.184
